Assay results from different studies.
Every numbered part comes from another study and shows a few of its results, in no order. “And” joins repeats or separate records; there may be more than shown.
Sequence of UniProt Q15139 (whole entry, looked up): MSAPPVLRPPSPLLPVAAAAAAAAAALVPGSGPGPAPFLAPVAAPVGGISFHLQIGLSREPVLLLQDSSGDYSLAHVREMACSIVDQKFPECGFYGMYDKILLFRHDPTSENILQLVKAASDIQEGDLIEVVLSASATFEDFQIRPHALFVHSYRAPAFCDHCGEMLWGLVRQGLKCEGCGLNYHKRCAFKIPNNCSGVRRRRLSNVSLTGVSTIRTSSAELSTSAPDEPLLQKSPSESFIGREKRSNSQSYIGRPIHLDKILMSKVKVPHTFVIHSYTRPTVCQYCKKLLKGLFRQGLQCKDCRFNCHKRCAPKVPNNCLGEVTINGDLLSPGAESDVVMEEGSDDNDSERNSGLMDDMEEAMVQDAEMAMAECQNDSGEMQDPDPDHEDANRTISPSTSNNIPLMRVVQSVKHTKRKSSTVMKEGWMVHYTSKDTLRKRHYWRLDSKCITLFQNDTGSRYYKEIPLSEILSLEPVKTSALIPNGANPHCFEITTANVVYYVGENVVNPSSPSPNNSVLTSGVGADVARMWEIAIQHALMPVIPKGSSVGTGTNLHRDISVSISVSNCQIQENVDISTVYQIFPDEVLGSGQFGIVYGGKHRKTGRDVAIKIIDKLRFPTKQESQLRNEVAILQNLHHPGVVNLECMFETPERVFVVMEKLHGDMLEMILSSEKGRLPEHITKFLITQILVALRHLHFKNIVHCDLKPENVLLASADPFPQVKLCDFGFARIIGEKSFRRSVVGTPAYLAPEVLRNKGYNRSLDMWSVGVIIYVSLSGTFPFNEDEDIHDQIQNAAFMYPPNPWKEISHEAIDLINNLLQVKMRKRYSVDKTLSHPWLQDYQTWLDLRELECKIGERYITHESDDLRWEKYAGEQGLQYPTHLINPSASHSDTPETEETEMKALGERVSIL
Sequence of UniProt Q9P286 (whole entry, looked up): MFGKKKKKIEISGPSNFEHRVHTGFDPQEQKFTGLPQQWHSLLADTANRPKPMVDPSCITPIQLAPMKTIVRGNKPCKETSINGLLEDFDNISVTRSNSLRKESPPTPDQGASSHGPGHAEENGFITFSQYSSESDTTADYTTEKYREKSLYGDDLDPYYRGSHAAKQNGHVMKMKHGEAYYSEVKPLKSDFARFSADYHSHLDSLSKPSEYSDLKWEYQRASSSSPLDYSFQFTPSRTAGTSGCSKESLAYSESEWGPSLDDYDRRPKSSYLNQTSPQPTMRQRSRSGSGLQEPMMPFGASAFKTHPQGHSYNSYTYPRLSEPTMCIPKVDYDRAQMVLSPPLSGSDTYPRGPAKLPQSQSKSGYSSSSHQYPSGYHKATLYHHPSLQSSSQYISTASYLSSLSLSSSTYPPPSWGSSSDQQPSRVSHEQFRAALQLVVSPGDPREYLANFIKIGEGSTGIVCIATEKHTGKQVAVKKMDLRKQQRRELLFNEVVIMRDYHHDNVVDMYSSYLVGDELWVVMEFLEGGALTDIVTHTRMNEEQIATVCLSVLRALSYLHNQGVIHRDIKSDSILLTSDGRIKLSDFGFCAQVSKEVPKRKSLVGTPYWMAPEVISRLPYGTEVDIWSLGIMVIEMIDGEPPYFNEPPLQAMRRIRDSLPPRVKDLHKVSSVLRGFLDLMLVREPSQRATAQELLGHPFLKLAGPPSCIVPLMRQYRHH
Sequence of UniProt P42336 (whole entry, looked up): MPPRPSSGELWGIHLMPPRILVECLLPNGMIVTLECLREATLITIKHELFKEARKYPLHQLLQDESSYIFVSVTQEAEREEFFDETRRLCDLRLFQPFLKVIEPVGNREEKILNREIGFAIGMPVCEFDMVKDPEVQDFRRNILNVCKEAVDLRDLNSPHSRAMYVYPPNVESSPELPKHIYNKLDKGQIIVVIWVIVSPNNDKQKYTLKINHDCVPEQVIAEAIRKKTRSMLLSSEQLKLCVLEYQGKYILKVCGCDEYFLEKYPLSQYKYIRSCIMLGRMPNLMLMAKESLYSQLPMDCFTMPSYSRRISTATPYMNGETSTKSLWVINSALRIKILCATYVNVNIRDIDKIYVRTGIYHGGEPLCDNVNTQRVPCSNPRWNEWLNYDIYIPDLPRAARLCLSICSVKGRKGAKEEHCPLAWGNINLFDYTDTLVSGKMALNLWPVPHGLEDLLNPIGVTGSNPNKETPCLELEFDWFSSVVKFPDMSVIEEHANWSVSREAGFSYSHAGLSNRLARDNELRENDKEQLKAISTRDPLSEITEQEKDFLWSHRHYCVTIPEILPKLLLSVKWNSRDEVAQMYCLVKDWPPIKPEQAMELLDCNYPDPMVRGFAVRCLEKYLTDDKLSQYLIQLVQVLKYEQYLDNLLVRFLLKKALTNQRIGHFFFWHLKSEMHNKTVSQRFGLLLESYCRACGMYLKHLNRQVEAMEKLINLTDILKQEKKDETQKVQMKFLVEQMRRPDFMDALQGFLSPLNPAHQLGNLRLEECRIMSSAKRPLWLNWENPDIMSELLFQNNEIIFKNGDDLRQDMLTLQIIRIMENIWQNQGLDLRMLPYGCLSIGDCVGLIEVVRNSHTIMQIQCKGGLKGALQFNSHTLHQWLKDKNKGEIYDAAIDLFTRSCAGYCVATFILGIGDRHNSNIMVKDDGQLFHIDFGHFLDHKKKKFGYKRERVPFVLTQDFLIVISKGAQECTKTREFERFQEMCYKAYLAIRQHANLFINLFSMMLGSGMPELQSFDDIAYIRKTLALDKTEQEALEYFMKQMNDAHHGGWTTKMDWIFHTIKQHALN

Set 1
Target: Calcium/calmodulin-dependent protein kinase type 1D (CAMK1D, Homo sapiens, UniProt Q8IU85)
Sequence of UniProt Q8IU85 (whole entry, looked up): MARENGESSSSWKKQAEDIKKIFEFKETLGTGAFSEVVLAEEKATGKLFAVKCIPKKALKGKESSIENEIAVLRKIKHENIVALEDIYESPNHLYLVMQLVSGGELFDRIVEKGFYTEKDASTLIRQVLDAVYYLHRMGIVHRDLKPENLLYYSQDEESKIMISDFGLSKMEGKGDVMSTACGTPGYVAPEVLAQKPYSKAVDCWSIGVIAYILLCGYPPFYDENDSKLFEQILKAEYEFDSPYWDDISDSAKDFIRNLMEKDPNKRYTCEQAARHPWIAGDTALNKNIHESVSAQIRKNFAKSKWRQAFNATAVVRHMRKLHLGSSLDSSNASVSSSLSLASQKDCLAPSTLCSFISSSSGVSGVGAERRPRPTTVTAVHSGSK
Effect on: enzyme activity
Mode: inhibitor
Concentration: 0.5 µM
Reference: control
Compound | remaining activity [%]
CNC(=O)c1cc(Oc2ccc(NC(=O)Nc3ccc(Cl)c(C(F)(F)F)c3)cc2)ccn1 | 103
Cc1ccc(NC(=O)c2ccc(CN3CCN(C)CC3)cc2)cc1Nc1nc(-c2cccnc2)cs1 | 110
Cc1nc(-c2ccccc2)c(-c2ccncc2)o1 | 93.9
Oc1ccc(-c2nc(-c3ccncc3)c(-c3ccc(F)cc3)[nH]2)cc1 | 102
NCCNc1ncc(C(N)=O)c(Nc2cccc(C(F)(F)F)c2)n1 | 61.1
COc1ccc(C(=O)Nc2sc3c(c2C(N)=O)CCCC3)cc1OC | 93.8
O=C(O)c1ccc2c3c1cccc3c(=O)n1c3ccccc3nc21 | 100
O=C(CCCc1ccc(-c2ccccc2F)cc1)Nc1ccc(O)cc1 | 122
CC(C)[C@H](CO)Nc1nc(Nc2cc(N)cc(Cl)c2)c2ncn(C(C)C)c2n1 | 103
CCOC(=O)c1c(C)[nH]c(/C=C2\C(=O)Nc3ccccc32)c1C | 93.1
Cc1cccc(-c2[nH]c(C(C)(C)C)nc2-c2ccc3c(c2)OCO3)n1 | 102
COc1ccc(CNC(=O)Nc2ncc([N+](=O)[O-])s2)cc1 | 112
CO[C@H]1C[C@@H]2CC[C@@H](C)[C@@](O)(O2)C(=O)C(=O)N2CCCC[C@H]2C(=O)O[C@H]([C@H](C)C[C@@H]2CC[C@@H](O)[C@H](OC)C2)CC(=O)[C@H](C)/C=C(\C)[C@@H](O)[C@@H](OC)C(=O)[C@H](C)C[C@H](C)/C=C/C=C/C=C/1C | 105
COc1ccc(OC)c2c(=S)c3ccccc3[nH]c12 | 104
COc1cc2ncnc(Nc3ccc(Oc4ccccc4)cc3)c2cc1OC | 99.7
C#Cc1cccc(Nc2ncnc3cc(OCCOC)c(OCCOC)cc23)c1 | 98.8

Set 2
Cell line: A-375
Concentration: 100 µM
Time: 36 h
SMILES | viability [%]
CCC(=O)NS(=O)(=O)c1ccc(-c2c(-c3ccccc3)noc2C)cc1 | 106
CCCCNC(=O)NS(=O)(=O)c1ccc(C)cc1 | 91.6
CS(=O)(=O)c1ccc(C(=O)Nc2ccc(Cl)c(-c3ccccn3)c2)c(Cl)c1 | 61.4
CC1(C)[C@@H]2CC[C@@]1(C)C(=O)C2 | 108
CN1C(C(=O)Nc2ccccn2)=C(O)c2sc(Cl)cc2S1(=O)=O | 78

Set 3
Compound: Cc1cc(C)c(-n2ccn3nc(-c4cccnc4)cc23)cc1NC(=O)c1cc(C#N)cc(S(F)(F)(F)(F)F)c1
Effect on: cell-free assay
Method: competition with immobilised ligand
Concentration: 0.1 µM
target | remaining binding
Serine/threonine-protein kinase PAK 5 (PAK5, Homo sapiens, UniProt Q9P286) | 83.5%
Phosphatidylinositol 4,5-bisphosphate 3-kinase catalytic subunit alpha isoform (PIK3CA, Homo sapiens, UniProt P42336) | 87.9%
Serine/threonine-protein kinase D1 (PRKD1, Homo sapiens, UniProt Q15139) | 81.2%
Receptor-type tyrosine-protein kinase FLT3 (FLT3, Homo sapiens, UniProt P36888, D835Y) | 91.4%
Epidermal growth factor receptor (EGFR, Homo sapiens, UniProt P00533, del752-759) | 91.6%

Set 4
SMILES: c1ccc(Oc2ccc(Nc3c4c(nc5ccccc35)CCC4)cc2)cc1
Method: resazurin
cell line | setting | cytotoxicity
HepG2 | 6.66 µM, 48 h | 8% and 13%
HEK293 | 0.32 µM, 10% serum | 11% and 10%
J774.1 | 33.32 µM, 64 h | 40%
J774.1 | 0.66 µM | 4% and 12%
RAW264.7 | 33.32 µM, 64 h | 39% and 40%
HepG2 | 0.0332 µM, 48 h | 3% and 7%
HEK293 | 66.66 µM, 10% serum | 102% and 100%

Excerpt of the above (set 4):
cell line | setting | cytotoxicity
J774.1 | 33.32 µM, 64 h | 40%
HEK293 | 66.66 µM, 10% serum | 102% and 100%
RAW264.7 | 33.32 µM, 64 h | 39% and 40%
HEK293 | 0.32 µM, 10% serum | 11% and 10%
J774.1 | 0.66 µM | 4% and 12%
